Measured values collected from several papers.
Numbered parts are unrelated; each lists some results of a single study. “And” joins repeats or separate records; there may be more than shown.
Sequence of UniProt P46098 (whole entry, looked up): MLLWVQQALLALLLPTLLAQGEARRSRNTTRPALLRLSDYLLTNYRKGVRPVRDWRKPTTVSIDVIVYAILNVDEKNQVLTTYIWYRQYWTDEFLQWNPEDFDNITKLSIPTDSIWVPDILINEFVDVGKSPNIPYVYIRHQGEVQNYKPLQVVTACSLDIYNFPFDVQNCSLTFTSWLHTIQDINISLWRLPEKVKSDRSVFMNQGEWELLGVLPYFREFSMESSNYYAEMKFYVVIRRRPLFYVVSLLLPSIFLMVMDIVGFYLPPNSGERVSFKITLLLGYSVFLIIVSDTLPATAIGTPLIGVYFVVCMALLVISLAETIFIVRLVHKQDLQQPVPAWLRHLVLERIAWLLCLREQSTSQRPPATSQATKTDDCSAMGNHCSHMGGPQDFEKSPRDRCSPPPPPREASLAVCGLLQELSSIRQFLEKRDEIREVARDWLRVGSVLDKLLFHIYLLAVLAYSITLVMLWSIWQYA

Study 1 — observed: enzyme activity; action: inhibitor; tested at: 10 µM
Target: Calcium/calmodulin-dependent protein kinase type II subunit alpha (CAMK2A, Homo sapiens, UniProt Q9UQM7)
Sequence of UniProt Q9UQM7 (whole entry, looked up): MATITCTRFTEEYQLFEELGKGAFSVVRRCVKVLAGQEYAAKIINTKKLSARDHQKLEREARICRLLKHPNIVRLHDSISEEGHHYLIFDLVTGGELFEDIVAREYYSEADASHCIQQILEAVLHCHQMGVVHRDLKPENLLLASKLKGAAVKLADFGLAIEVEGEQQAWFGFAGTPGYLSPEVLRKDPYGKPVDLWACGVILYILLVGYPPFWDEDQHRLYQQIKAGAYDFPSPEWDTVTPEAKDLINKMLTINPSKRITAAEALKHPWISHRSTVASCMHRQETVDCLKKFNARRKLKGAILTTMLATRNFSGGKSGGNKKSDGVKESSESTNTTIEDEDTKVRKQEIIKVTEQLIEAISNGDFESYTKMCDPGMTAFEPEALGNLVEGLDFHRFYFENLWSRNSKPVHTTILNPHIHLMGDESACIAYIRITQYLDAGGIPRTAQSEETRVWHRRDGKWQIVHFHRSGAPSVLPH
| Structure (SMILES) | inhibition [%] |
| --- | --- |
| C[N+](C)(C)CCOP(=O)(O)OP(=O)([O-])OC[C@H]1O[C@@H](n2ccc(N)nc2=O)[C@H](O)[C@@H]1O | 12 |
| COc1cc(OC)c2c(=O)c(OC)c(-c3ccc(OC)c(OC)c3)oc2c1 | 23 |
| C[C@H]1[C@H](OC(=O)CCC(=O)O)O[C@@H]2O[C@@]3(C)CC[C@H]4[C@H](C)CC[C@@H]1[C@@]24OO3 | 0 |
| NCCCC[C@@H]1NC(=O)[C@@H](Cc2c[nH]c3ccccc23)NC(=O)[C@H](c2ccccc2)NC(=O)[C@@H]2C[C@@H](OC(=O)NCCN)CN2C(=O)[C@H](Cc2ccccc2)NC(=O)[C@H](Cc2ccc(OCc3ccccc3)cc2)NC1=O | 5 |
| CN1CCCC(CC2c3ccccc3Sc3ccccc32)C1 (stereo not drawn) | -1 |
| C[C@H]1O[C@@H](n2cc(F)c(=O)[nH]c2=O)[C@H](O)[C@@H]1O | 1 |
| C=C1C[C@@]23CC[C@H]4[C@@](C)(CCC[C@@]4(C)C(=O)O[C@@H]4O[C@H](CO)[C@@H](O)[C@H](O)[C@H]4O)[C@@H]2CC[C@]1(O[C@@H]1O[C@H](CO)[C@@H](O)[C@H](O)[C@H]1O)C3 | -34 |
| c1ccc2c(-c3nccs3)c[nH]c2c1 | 23 |

Study 2
SMILES: COc1cc(C(=O)N2CCC(N3CCN(C)CC3)CC2)ccc1Nc1ncc2c(n1)N(C)c1ccccc1C(=O)N2C
| tested on | test | test system | conditions | inhibition |
| --- | --- | --- | --- | --- |
| MARK1 (mouse) | probe labelling, KiNativ ATP probe | mouse brain lysate | 0.1 µM, LYS1 labelled site | 15.9% |
| mouse CaMK1δ | probe labelling, KiNativ ADP probe | mouse brain lysate | 0.1 µM, LYS1 site LFAVkCIPK | -10% |
| RSKL1 domain 1 (mouse) | probe labelling, inhibitor, KiNativ ActivX ATP probe | mouse brain lysate | 0.1 µM | -8% |
| MLK2 (mouse) | probe labelling, KiNativ ADP probe | mouse brain lysate | 0.1 µM, LYS1 labelled site | 6.9% |
| human PBMC | probe labeling, inhibitor, KiNativ profiling, measured: DVkPSNILVNSR | cell lysate | 1 µM, LYS2 site, together with: ADP acyl-phosphate probe | 0.7% |
| SLK mouse | KiNativ profiling | mouse brain lysate | 1 µM, LYS1 site, together with: ATP acyl phosphate probe | -20.3% |
| NDR2 (mouse) | probe labelling, KiNativ, measured: DTGHIYAMkILR peptide, LYS1 site | brain tissue lysate (mouse) | 0.1 µM, together with: ADP acyl-phosphate probe | -0.5% |
| human PBMC | probe labeling, inhibitor, KiNativ profiling, measured: DVkPDNMLLDK | cell lysate | concentration not given, LYS2 site, together with: ATP acyl-phosphate probe 1 µM | 9.5% |
| YSK1 mouse | KiNativ profiling | mouse brain lysate | 1 µM, LYS1 site, together with: ADP acyl phosphate probe | -2.1% |
| YANK1/YANK2/YANK3 (mouse) | probe labelling, inhibitor, KiNativ ActivX ADP probe | mouse brain lysate | 0.1 µM, Lys1 site peptide | -4.5% |
| mouse PKACα | probe labelling, KiNativ ADP probe | mouse brain lysate | 0.1 µM, LYS1 site | -19.7% |

Study 3 — cell line: HaCaT; tested at: 100 µM; time: 36 h
| Compound | viability [%] |
| --- | --- |
| CCC[C@H](N[C@@H](C)C(=O)N1[C@H](C(=O)O)C[C@@H]2CCCC[C@@H]21)C(=O)OCC | 97.5 |
| CCOC(=O)[C@H](CCc1ccccc1)N[C@@H](C)C(=O)N(CC(=O)O)C1Cc2ccccc2C1 | 59.9 |
| CC(=O)OC(C)C(C)C(=O)OC[C@@]12[C@H]3C[C@]4(C)C(=CC[C@@H]5[C@@]6(C)CC[C@H](O[C@@H]7O[C@H](C(=O)O)[C@@H](O[C@@H]8O[C@H](CO)[C@@H](O)[C@H](O)[C@H]8O)[C@H](O)[C@H]7O[C@@H]7OC[C@@H](O)[C@H](O)[C@H]7O)[C@@](C)(CO)[C@@H]6CC[C@]54C)[C@@H]1CC(C)(C)[C@H](O3)[C@@H]2O (stereo partly drawn) | 5.93 |
| CCN(Cc1ccncc1)C(=O)C(CO)c1ccccc1 (stereo not drawn) | 92.3 |
| CN1CCN(c2c(F)cc3c(=O)c(C(=O)O)cn(CCF)c3c2F)CC1 | 87.5 |
| O=C1[C@H](CC[C@H](O)c2ccc(F)cc2)[C@@H](c2ccc(O)cc2)N1c1ccc(F)cc1 | 5.59 |
| COC(=O)C1=C(C)NC(C)=C(C(=O)OC(C)(C)CN(C)CCC(c2ccccc2)c2ccccc2)C1c1cccc([N+](=O)[O-])c1 (stereo not drawn) | 91 |

Mixed results — tested at: 10 µM
HTR5A: 5-hydroxytryptamine receptor 5A (HTR5A, Homo sapiens, UniProt P47898)
Sequence of UniProt P47898 (whole entry, looked up): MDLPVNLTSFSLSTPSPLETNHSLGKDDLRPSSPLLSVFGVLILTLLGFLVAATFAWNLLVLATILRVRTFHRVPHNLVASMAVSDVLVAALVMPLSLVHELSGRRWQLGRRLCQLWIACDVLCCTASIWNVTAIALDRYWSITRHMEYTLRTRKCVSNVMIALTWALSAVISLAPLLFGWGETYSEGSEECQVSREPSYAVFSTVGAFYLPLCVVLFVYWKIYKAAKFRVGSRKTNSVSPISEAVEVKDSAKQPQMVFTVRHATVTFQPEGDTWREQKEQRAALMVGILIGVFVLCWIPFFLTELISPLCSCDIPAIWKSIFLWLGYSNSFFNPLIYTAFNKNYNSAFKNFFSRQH
| SMILES | tested on | observed | method | time | measurement | result |
| --- | --- | --- | --- | --- | --- | --- |
| COc1cc(-c2cn(C3CCc4ccccc4N(CC(F)(F)F)C3=O)nn2)ccc1-n1ccc(C)n1 (stereo not drawn) | HTR3A (Homo sapiens, UniProt P46098) | binding | radioligand binding |  | inhibition | -9.73% |
| CN([C@@H]1CCc2c(CC(=O)O)c3ccccc3n2C1)S(=O)(=O)c1ccc(F)cc1 | HTR5A | ligand displacement |  |  | inhibition | -1.36% |
| Cn1cncc1[C@@](O)(COc1ccc(C#N)cc1-c1ccc(OC(F)(F)F)cc1)c1ccc(C#N)cc1 | HEK293T |  | high-content imaging | 0 h | membrane-permeable cells | 0.74% and 0.62% |
| COc1cc(N[C@@H]2CCCC[C@]2(O)C(F)(F)F)ccc1F | HTR5A | ligand displacement |  |  | inhibition | -10.9% |

A few entries again (mixed results):
| SMILES | tested on | observed | method | time | measurement | result |
| --- | --- | --- | --- | --- | --- | --- |
| CN([C@@H]1CCc2c(CC(=O)O)c3ccccc3n2C1)S(=O)(=O)c1ccc(F)cc1 | HTR5A | ligand displacement |  |  | inhibition | -1.36% |
| COc1cc(-c2cn(C3CCc4ccccc4N(CC(F)(F)F)C3=O)nn2)ccc1-n1ccc(C)n1 (stereo not drawn) | HTR3A (Homo sapiens, UniProt P46098) | binding | radioligand binding |  | inhibition | -9.73% |
| COc1cc(N[C@@H]2CCCC[C@]2(O)C(F)(F)F)ccc1F | HTR5A | ligand displacement |  |  | inhibition | -10.9% |
